Measured values pooled from the literature.
Parts stem from different laboratories: compare values within a part only. “And” joins repeats or separate records; there may be more than shown.

Block 1
Target: Fragile X messenger ribonucleoprotein 1, C-terminal low-complexity region (Fmr1, Mus musculus, UniProt P35922)
Technique: RNA Bind-n-Seq
Molecule type: RNA
Sample: in vitro
Tested at: 200 nM
Notes: whole 134-nt RNA, ends assumed
Added: 150 mM KCl
Relative to: input library
Direction: higher = stronger binding
| Oligonucleotide | log2 enrichment |
| --- | --- |
| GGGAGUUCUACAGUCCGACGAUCCCUGUGCUACACAUCGUAUGUACCGAAUCGGGGAAAGGGGUUUUUGGGGUUUUUUUGGGGAAAGUAUUAUGUUACGCCGUUCGGAUCUGCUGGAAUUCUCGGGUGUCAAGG | 0.34 |
| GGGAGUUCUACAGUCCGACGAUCACCAUGCAGGUGGGCAUCUUUGGGAAGUGGGGCAAGGGGGGGAUAAAGAGGGGGGUAACACUUUGGGAACAGGUGGUCCCAGGUCGUUUCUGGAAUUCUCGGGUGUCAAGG | 0.457 |
| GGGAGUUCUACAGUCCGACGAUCUCCUCAAGUCCUGUGCUACACAUCGUAUGUACCGAAUCGGUGGUGGGUGGGGAAAGUAUUAUGUUACGCCGUUCGGAUCUGCACUUCCAGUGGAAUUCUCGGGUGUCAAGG | 0.515 |
| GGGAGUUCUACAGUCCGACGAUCUCAAGUCCUGUGCUACACAUCGUAUGUACCGAAUCGGAAAGGUUUUUUUGGUGGAAAGUAUUAUGUUACGCCGUUCGGAUCUGCACUUCCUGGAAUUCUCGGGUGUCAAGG | -0.659 |
| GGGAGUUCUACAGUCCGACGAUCUGGGAGGUGGAUUUUGUUUAUUUGUUUAGCUCAUUUCCAGGGGUGGGAAUUUUUUUUUAAUAUGUGUCAUGAAUAAAGUUGUUUUUGAAAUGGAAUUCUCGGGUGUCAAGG | 0.267 |
| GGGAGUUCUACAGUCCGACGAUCCCUGUGCUACACAUCGUAUGUACCGAAUCGGGAAAAAAGGAAAAAAGGGGAAAAAAGGGGAAAGUAUUAUGUUACGCCGUUCGGAUCUGCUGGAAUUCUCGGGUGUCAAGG | -0.507 |
| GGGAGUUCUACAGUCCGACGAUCAGUCCUGUGCUACACAUCGUAUGUACCGAAUCGGAAAAAGGGAAAAAGGAAAAAGGGAAAGUAUUAUGUUACGCCGUUCGGAUCUGCACUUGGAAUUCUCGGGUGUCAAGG | -0.816 |
| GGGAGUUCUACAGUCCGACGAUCUCCUGUGCUACACAUCGUAUGUACCGAAUCGGGAAAAAGGGAAAAAAAGGGAAAAAGGGAAAGUAUUAUGUUACGCCGUUCGGAUCUGCAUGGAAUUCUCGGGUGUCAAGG | -0.251 |
| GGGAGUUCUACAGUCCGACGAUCGCAGGAAGUAAAAACAAAUGGAAAUGAAACGGAUAGUGGCAGGGGUGGGGGUUGCUAAGGAAAGGGUGGGAUGGGAGUGGGUAAAGAGUUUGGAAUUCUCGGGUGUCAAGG | -0.00583 |

Block 2
Target: RNA binding protein fox-1 homolog 2, RRM domain, GST-SBP tag (RBFOX2, Homo sapiens, UniProt O43251-10, residues 100-194)
Technique: RNA Bind-n-Seq
Molecule type: RNA
Sample: in vitro
Tested at: 365 nM
Notes: natural RNA segment, single round, ends assumed
Relative to: no-protein control
Direction: higher = stronger binding
Construct (chain): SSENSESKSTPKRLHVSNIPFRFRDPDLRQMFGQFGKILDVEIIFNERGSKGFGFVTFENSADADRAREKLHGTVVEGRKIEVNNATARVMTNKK
| Oligonucleotide | RBNS enrichment (R) |
| --- | --- |
| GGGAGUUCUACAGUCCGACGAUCCAGAGUGCUUUAUGCUUUUUAAUGACUGUUAGUGUUUCUCACAUGCCUGUGAGAUACAUCAGCAUUGCAAACUGUGACUGGGGAAAGUCUGGGGGAGGAGUGUGGUAAGCUGGAAUUCUCGGGUGCCAA | 0.935 |
| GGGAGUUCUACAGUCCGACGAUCAUUACAUAGCAUACCUGUAUUUCAGUUAAAAACCAGACCCUAUGGUGUUGGGUAGACACUGACAGUUGAGAGGGUCACCAGGGUGCCACUCUAGUGUGAAGUCCUCUUCUUGGAAUUCUCGGGUGCCAA | 0.326 |
| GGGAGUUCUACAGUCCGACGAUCCAAAUUCCUGAUGUUCUGCAAUACUCAGAAAAUUCUUUGAAUGGCAGACUUUCUUUUGUCUGUUUCUAAAAUGUGAAGCUUUAGGACCAAAUUGUUAGACAGCAUCAGGAUGGAAUUCUCGGGUGCCAA | 8.14 |
| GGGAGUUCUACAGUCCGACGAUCAACACCAGCAGUUGUCAUUCAGUGCAGGUUUUUGUACUUCUAUAUGGUGAUUUUUUUACUUAAAAGCAGAAACAGAAGUUGACCUUCCUGACAUGUGUUUAAUAUUCCUCUGGAAUUCUCGGGUGCCAA | 0.308 |
| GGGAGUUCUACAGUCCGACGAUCUUCAGAUGCCCAUCUUCUGCAGUUACCAAGGAAGAGAGAUUGUUCUGAAGUUACCCUCUGAAAAAUAUUUUGUCUCUCUGACUUGAUUUCUAUAAAUGCUUUUAAAAACAUGGAAUUCUCGGGUGCCAA | 1.01 |
| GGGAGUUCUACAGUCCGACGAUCAAGCUGCCCUCCUGAAAGGCAAGGGCGCCCCGCCCCCGGCCUUCCCCCAUGUACCCCCACCUGUGUUCCGUUUGACCAGCACAGAAAUAUUAAAGUCCUCUAUUUACCGGUGGAAUUCUCGGGUGCCAA | 0.729 |
| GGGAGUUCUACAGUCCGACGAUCGAGUUUCUUCAUUUCUGUCUCACAAUUAUCAAAAGCUAGAAUUAGCUUCUGCCCUAUGUUUCUGUACUUCUAUUUGAACUGGAUAACAGAGAGACAAUCUAAACAUUCUCUGGAAUUCUCGGGUGCCAA | 0.48 |

Block 3
Target: Prothrombin, mature alpha-thrombin (F2, Homo sapiens, UniProt P00734)
Technique: aptamer microarray, sandwich
Molecule type: DNA with 2'F-ANA
Sample: in vitro
Tested at: 200 nM
Notes: whole 15-mer aptamer, many near background
Added: Cy3 exosite-II aptamer, 400 nM
Direction: higher = stronger binding
Oligonucleotide: GGTTGGTGTGGTTGG
| Modification | mean fluorescence intensity [a.u.] |
| --- | --- |
| 2'F-ANA at 1 4 6 7 8 9 10 13 14 | 52.4 |
| 2'F-ANA at 1 2 7 9 10 | 69.7 |
| 2'F-ANA at 1 6 8 9 13 15 | 152 |
| 2'F-ANA at 1 6 11 14 15 | 53.9 |
| 2'F-ANA at 1 3 4 6 7 11 12 13 | 236 |
| 2'F-ANA at 2 5 7 11 13 | 52.1 |

Mixed results
| Molecule | target | assay | system | conditions | scale | quantity | value |
| --- | --- | --- | --- | --- | --- | --- | --- |
| PhoQ, residues 284 288 289 292 302 303 QWGLFV | PhoP, residues 12 14 15 18 19 LWHSL (Escherichia coli, UniProt P23836) | Sort-seq, item: YFP reporter | E. coli | PhoQ-PhoP variant library, added: 10 µM Mg2+ | relative to: high Mg2+ state, higher = stronger signaling | fold induction | 5.51 and 10.6 |
